Experimental data collected from several papers.
Each numbered part is a random draw from the data of one study; scales do not carry over between parts.
Chain of UniProt P07949 (whole entry, unmodified, looked up): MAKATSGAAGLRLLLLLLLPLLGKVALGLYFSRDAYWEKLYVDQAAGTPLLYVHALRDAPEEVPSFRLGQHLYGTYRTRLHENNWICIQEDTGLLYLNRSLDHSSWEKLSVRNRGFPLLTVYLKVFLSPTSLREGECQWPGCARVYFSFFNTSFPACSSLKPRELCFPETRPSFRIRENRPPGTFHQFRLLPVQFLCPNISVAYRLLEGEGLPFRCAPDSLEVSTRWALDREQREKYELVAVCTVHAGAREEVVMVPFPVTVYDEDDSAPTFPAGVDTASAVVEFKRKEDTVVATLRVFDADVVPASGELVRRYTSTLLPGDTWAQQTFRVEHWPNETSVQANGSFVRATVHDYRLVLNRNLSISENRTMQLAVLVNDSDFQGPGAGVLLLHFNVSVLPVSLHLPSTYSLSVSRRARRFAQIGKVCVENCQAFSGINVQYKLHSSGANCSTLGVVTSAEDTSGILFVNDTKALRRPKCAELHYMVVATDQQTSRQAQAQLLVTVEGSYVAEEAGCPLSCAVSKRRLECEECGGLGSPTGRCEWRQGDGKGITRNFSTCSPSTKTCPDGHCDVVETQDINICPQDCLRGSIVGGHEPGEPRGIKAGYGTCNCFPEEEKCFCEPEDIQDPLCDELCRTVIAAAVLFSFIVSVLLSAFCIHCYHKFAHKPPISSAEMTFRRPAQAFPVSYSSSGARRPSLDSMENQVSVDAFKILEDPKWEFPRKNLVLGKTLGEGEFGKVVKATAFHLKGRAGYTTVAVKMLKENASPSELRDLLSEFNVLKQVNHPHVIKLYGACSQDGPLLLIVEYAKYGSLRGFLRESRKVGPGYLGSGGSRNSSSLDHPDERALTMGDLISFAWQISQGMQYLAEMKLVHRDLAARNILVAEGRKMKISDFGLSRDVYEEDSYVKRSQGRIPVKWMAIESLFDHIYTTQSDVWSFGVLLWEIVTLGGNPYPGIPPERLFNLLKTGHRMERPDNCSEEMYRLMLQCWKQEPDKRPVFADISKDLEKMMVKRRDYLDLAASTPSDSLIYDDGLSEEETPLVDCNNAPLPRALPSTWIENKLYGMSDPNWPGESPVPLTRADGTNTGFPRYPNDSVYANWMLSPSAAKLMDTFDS
Chain of UniProt P52564 (whole entry, looked up): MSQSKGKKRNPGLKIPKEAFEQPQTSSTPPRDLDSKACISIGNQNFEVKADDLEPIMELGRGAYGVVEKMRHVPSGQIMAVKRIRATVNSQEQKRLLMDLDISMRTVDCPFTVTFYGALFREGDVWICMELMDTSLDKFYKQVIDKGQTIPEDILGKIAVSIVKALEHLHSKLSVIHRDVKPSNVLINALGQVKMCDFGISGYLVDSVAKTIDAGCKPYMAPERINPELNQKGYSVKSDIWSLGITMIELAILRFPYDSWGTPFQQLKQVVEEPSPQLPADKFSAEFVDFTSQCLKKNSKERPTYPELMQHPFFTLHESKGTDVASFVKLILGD
Chain of UniProt O94921 (whole entry, looked up): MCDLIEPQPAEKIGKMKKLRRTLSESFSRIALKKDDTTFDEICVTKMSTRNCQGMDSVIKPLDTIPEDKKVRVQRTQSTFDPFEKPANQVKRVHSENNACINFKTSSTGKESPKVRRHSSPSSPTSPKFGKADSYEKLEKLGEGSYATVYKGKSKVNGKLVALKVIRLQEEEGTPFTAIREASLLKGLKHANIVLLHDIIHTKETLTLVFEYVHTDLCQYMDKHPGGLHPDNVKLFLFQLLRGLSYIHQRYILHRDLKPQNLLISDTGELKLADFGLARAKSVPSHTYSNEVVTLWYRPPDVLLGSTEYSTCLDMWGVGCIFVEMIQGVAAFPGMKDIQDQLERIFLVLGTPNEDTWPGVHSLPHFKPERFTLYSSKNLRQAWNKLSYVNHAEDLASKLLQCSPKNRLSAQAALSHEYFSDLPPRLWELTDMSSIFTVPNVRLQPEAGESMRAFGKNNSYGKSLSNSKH
Chain of UniProt P57059 (whole entry, looked up): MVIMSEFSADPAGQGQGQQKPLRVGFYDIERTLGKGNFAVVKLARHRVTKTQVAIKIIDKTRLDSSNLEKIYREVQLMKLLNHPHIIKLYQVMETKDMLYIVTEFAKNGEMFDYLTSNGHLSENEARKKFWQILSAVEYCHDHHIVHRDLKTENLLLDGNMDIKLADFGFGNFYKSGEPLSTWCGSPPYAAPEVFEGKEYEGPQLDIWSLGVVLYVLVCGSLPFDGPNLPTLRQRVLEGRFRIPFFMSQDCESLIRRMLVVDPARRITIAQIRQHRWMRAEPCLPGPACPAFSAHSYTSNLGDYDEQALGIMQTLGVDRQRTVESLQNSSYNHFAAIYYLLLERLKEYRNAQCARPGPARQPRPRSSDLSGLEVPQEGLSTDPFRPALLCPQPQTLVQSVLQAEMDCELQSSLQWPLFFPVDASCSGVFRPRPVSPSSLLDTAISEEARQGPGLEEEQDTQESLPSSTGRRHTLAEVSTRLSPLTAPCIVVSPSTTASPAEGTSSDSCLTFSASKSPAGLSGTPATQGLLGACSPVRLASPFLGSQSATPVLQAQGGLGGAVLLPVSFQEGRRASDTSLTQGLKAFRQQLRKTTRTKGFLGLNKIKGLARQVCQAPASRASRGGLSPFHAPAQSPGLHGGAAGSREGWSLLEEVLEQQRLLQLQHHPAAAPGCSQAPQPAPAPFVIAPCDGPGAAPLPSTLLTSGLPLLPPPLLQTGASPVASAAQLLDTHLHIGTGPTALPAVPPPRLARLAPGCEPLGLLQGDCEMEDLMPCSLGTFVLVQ
Chain of UniProt Q13554 (whole entry, looked up): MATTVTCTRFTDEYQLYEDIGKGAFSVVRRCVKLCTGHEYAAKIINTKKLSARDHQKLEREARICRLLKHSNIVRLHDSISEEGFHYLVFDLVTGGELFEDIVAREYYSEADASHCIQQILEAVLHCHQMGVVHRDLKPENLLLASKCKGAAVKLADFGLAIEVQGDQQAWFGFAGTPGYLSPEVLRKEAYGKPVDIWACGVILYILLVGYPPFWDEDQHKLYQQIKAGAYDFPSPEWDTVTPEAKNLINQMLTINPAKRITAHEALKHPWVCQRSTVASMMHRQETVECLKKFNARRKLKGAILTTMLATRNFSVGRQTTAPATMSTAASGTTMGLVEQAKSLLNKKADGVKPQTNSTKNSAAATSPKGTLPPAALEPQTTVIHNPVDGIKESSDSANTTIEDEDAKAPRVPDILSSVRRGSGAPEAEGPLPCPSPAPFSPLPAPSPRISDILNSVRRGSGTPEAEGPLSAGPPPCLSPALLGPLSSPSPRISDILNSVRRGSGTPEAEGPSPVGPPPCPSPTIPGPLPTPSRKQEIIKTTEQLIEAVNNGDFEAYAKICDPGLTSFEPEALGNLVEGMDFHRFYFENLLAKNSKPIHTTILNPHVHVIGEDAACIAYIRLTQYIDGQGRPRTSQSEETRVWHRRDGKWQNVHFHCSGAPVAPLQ

Series 1 — method: RNAcompete; molecule type: RNA; sample: in vitro; tested at: 20 nM; setting: 7-mer, probes averaged, single round; baseline: mean of 7-mers; direction: higher = stronger binding
Target: PABPC1L2, full length, GST fusion (mouse, UniProt A0ABA7IW68)
Residues (chain): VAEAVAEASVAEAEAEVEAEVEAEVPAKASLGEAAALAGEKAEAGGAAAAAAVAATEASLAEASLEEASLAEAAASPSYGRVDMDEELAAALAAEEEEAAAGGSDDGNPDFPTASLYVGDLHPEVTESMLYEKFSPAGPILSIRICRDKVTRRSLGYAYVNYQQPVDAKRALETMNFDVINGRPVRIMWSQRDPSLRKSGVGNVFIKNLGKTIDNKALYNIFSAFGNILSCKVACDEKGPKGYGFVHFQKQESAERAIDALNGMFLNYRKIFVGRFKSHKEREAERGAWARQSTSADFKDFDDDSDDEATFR
| Sequence | 7-mer Z-score |
| --- | --- |
| UUGAUCA | -0.108 |
| ACUGGUC | -0.128 |
| GUCUUGC | -0.347 |
| AAACGCG | 1.05 |
| AGAGGGA | 0.336 |
| GGGACAG | 0.213 |
| GUACCCU | -0.356 |
| UCAAUAG | -0.182 |

Series 2 — tested at: 1 µM
SMILES: O=C(NS(=O)(=O)c1ccc(NCC2CCOCC2)c([N+](=O)[O-])c1)c1ccc(N2CCN(Cc3ccc(C(F)(F)F)cc3-c3ccc(Cl)cc3)CC2)cc1Oc1cnc2[nH]ccc2c1
| target | assay | remaining binding [%] |
| --- | --- | --- |
| PRKX (Homo sapiens, UniProt P51817) | cell-free assay, competition with immobilised ligand | 100 |
| FLT3 (Homo sapiens, UniProt P36888) | cell-free assay, competition with immobilised ligand | 80 |
| MKNK1 (Homo sapiens, UniProt Q9BUB5) | cell-free assay, competition with immobilised ligand | 99 |
| ROCK2 (Homo sapiens, UniProt O75116) | cell-free assay, competition with immobilised ligand | 100 |
| Cyclin-dependent kinase 4, with cyclin D3 (CDK4, Homo sapiens, UniProt P11802) | cell-free assay, competition with immobilised ligand | 100 |
| FLT3 (Homo sapiens, UniProt P36888, ITD) | cell-free assay, competition with immobilised ligand | 100 |
| Tyrosine-protein kinase ABL1, phosphorylated (ABL1, Homo sapiens, UniProt P00519, Y253F) | cell-free assay, competition with immobilised ligand | 96 |
| FLT1 (Homo sapiens, UniProt P17948) | cell-free assay, competition with immobilised ligand | 100 |
| IRAK3 (Homo sapiens, UniProt Q9Y616) | cell-free assay, competition with immobilised ligand | 100 |
| HIPK3 (Homo sapiens, UniProt Q9H422) | cell-free assay, competition with immobilised ligand | 100 |
| MAP2K6 (Homo sapiens, UniProt P52564) | cell-free assay, competition with immobilised ligand | 97 |
| STK38L (Homo sapiens, UniProt Q9Y2H1) | cell-free assay, competition with immobilised ligand | 93 |
| DSTYK (Homo sapiens, UniProt Q6XUX3) | cell-free assay, competition with immobilised ligand | 94 |
| DCLK2 (Homo sapiens, UniProt Q8N568) | cell-free assay, competition with immobilised ligand | 100 |
| RET (Homo sapiens, UniProt P07949, M918T) | cell-free assay, competition with immobilised ligand | 100 |
| CDK14 (Homo sapiens, UniProt O94921) | cell-free assay, competition with immobilised ligand | 100 |
| DAPK3 (Homo sapiens, UniProt O43293) | cell-free assay, competition with immobilised ligand | 91 |
| CAMK2B (Homo sapiens, UniProt Q13554) | cell-free assay, competition with immobilised ligand | 96 |
| MAPKAPK5 (Homo sapiens, UniProt Q8IW41) | cell-free assay, competition with immobilised ligand | 81 |
| Aurora kinase B (AURKB, Homo sapiens, UniProt Q96GD4) | cell-free assay, competition with immobilised ligand | 100 |
| TEC (Homo sapiens, UniProt P42680) | cell-free assay, competition with immobilised ligand | 71 |
| SIK1 (Homo sapiens, UniProt P57059) | competition binding | 90 |
| ALK (Homo sapiens, UniProt Q9UM73, C1156Y) | cell-free assay, competition with immobilised ligand | 100 |
| CILK1 (Homo sapiens, UniProt Q9UPZ9) | cell-free assay, competition with immobilised ligand | 84 |
| Macrophage colony-stimulating factor 1 receptor, autoinhibited (CSF1R, Homo sapiens, UniProt P07333) | cell-free assay, competition with immobilised ligand | 85 |

Series 3 — method: RNA Bind-n-Seq; molecule type: RNA; sample: in vitro; tested at: 200 nM; setting: whole 134-nt RNA, ends assumed; with: 150 mM KCl; baseline: input library; direction: higher = stronger binding
Target: Ras GTPase-activating protein-binding protein 1, full length (G3BP1, Homo sapiens, UniProt Q13283)
Chain of UniProt Q13283 (whole entry, looked up): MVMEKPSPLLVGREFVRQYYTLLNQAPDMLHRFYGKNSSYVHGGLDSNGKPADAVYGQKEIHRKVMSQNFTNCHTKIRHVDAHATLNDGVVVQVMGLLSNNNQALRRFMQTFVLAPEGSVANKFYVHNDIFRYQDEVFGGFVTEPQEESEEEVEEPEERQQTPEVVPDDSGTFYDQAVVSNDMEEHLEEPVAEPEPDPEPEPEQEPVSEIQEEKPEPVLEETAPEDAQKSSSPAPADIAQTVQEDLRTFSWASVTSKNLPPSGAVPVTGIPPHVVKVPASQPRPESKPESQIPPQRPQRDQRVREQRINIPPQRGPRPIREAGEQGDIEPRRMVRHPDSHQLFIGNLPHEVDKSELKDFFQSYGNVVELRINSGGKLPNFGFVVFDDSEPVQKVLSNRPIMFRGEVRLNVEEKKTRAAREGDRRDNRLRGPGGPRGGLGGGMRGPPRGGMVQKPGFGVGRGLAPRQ
All sequences stand within: GGGAGUUCUACAGUCCGACGAUC … UGGAAUUCUCGGGUGUCAAGG
| Sequence | log2 enrichment |
| --- | --- |
| GUCCUGUGCUACACAUCGUAUGUACCGAAUCGGGGAAAGGGGAAAAAGGGGAAAGGGGAAAGUAUUAUGUUACGCCGUUCGGAUCUGCAC | 0.604 |
| AGUCCUGUGCUACACAUCGUAUGUACCGAAUCGGUUUGGAAAAAAAGGAAAAAAAGGAAAGUAUUAUGUUACGCCGUUCGGAUCUGCACU | -1.03 |
| UUGACUAUAUUGUGGAGUAUGACUAUGAUGCUGUACAUGAUGAUGAAUUAACUAUUCGAGUUGGAGAAAUCAUCAGGAAUGUGAAAAAGC | -1.48 |
| CCUGUGCUACACAUCGUAUGUACCGAAUCAAACCCCCAAACCCCCCCAAAUUUUUUUAAAAAAGUAUUAUGUUACGCCGUUCGGAUCUGC | 0.000833 |
| CAAGUCCUGUGCUACACAUCGUAUGUACCGAAUCGGGGAGGGGAAAGGGGAGGGGAAAGUAUUAUGUUACGCCGUUCGGAUCUGCACUUC | 1.41 |
| GUCCUGUGCUACACAUCGUAUGUACCGAAUCGGGAAAAAAAGGGUUUUUUUGGGAGGGAAAGUAUUAUGUUACGCCGUUCGGAUCUGCAC | -0.156 |
| UCCUGUGCUACACAUCGUAUGUACCGAAUCGGGUUUUUUUGGGUUUUUGGGAAAAAGGGAAAGUAUUAUGUUACGCCGUUCGGAUCUGCA | -0.456 |
| GGGUCUGUUGCAAAUAAAUUCUAUGUUCACAAUGAUAUCUUCAGAUACCAAGAUGAGGUCUUUGGUGGGUUUGUCACUGAGCCUCAGGAG | -1.55 |

Series 4 — read-out: enzyme activity; mode: inhibitor; tested at: 0.5 µM; baseline: control
Target: Proto-oncogene tyrosine-protein kinase receptor Ret (RET, Homo sapiens, UniProt P07949)
| SMILES | remaining activity [%] |
| --- | --- |
| O=C(O)c1ccc2c3c1cccc3c(=O)n1c3ccccc3nc21 | 96.8 |
| O=C1NC(=O)C(c2cn(CCCn3ccnc3)c3ccccc23)=C1Nc1ccccc1 | 95.6 |
| Cc1cccc(-c2[nH]c(C(C)(C)C)nc2-c2ccc3c(c2)OCO3)n1 | 103 |
| CO[C@H]1C[C@@H]2CC[C@@H](C)[C@@](O)(O2)C(=O)C(=O)N2CCCC[C@H]2C(=O)O[C@H]([C@H](C)C[C@@H]2CC[C@@H](O)[C@H](OC)C2)CC(=O)[C@H](C)/C=C(\C)[C@@H](O)[C@@H](OC)C(=O)[C@H](C)C[C@H](C)/C=C/C=C/C=C/1C | 98.7 |
| CN(C)c1ccc(C=C2C(=O)Nc3ccccc32)cc1 | 78 |
| CC(C)[C@H](CO)Nc1nc(Nc2cc(N)cc(Cl)c2)c2ncn(C(C)C)c2n1 | 61.6 |
| Oc1ccc(-c2nc(-c3ccncc3)c(-c3ccc(F)cc3)[nH]2)cc1 | 89.3 |

Other studies, line by line — method: cross-linking MS
| Substance | partner | system | conditions | cross-linked residues |
| --- | --- | --- | --- | --- |
| COPS7B (Homo sapiens, UniProt Q9H9Q2) | COPS3 (Homo sapiens, UniProt Q9UNS2) | cell fractions | with: DHSO | E212 to E396 |
| TOMM40 (Homo sapiens, UniProt O96008) | TOMM7 (Homo sapiens, UniProt Q9P0U1) | cells | with: BSPNO | K184 to K17 |
| GNL3 (Homo sapiens, UniProt Q9BVP2) | CCDC86 (Homo sapiens, UniProt Q9H6F5) | cell fractions | with: DSSO | K46 to K291 |

A few entries again (other studies, line by line):
| Substance | partner | system | conditions | cross-linked residues |
| --- | --- | --- | --- | --- |
| COPS7B (Homo sapiens, UniProt Q9H9Q2) | COPS3 (Homo sapiens, UniProt Q9UNS2) | cell fractions | with: DHSO | E212 to E396 |
| TOMM40 (Homo sapiens, UniProt O96008) | TOMM7 (Homo sapiens, UniProt Q9P0U1) | cells | with: BSPNO | K184 to K17 |
| GNL3 (Homo sapiens, UniProt Q9BVP2) | CCDC86 (Homo sapiens, UniProt Q9H6F5) | cell fractions | with: DSSO | K46 to K291 |
